Published values pooled from the literature.
Lines come from different studies, so protocols differ. ± gives the spread as reported.

O=C(Cn1ccc([N+](=O)[O-])n1)N1CCCc2ccccc21
thermodynamic solubility (aqueous buffer; pH 7.4): 294 µM

c1cc(-c2ccc3ncnc(Nc4ncco4)c3c2)cc(N2CC3CCC(C2)O3)c1
thermodynamic solubility (0.1 M phosphate buffer; pH 7.4, 25 °C): 0.4 µM

CCc1ccccc1NC(=O)CSc1nnc(-c2cccc(OC)c2)n1C
thermodynamic solubility (aqueous buffer; pH 7.4): 87.1 µM

CN1CCC(Nc2ncnc3ccc(-c4cccc(N5CCOCC5)c4)cc23)CC1
thermodynamic solubility (0.1 M phosphate buffer; pH 7.4, 25 °C): 930 µM

O=C(CCCN1CCC(O)(c2ccc(Cl)cc2)CC1)c1ccc(F)cc1
thermodynamic solubility (shake-flask; Cremophor ELP; 37 °C, water up to 0.5% w/w): 17.3 ± 0.82 mg/g

COc1c(-c2ccc3cc(NS(C)(=O)=O)ccc3c2)cc(-n2ccc(=O)[nH]c2=O)cc1C(C)(C)C
thermodynamic solubility (50 mM sodium phosphate; 48 h, pH 7.4, 25 °C, crystalline free acid): -6.7 log S

CCOC(=O)C1=C(C)NC(C)=C(C(=O)OC)C1c1cccc(Cl)c1Cl (stereo not shown)
thermodynamic solubility (shake-flask; Cremophor ELP; 37 °C, water up to 0.5% w/w): 105 ± 8.22 mg/g

c1cc(-c2ccc3ncnc(Nc4ncco4)c3c2)nc(N2C[C@H]3C[C@@H]2CO3)n1
thermodynamic solubility (0.1 M phosphate buffer; pH 7.4, 25 °C): 48 µM

COc1cc([N+](=O)[O-])ccc1NC(=O)CN1CCOCC1
thermodynamic solubility (aqueous buffer; pH 7.4): 15.8 µM

CCN(CC)C(=S)SSC(=S)N(CC)CC
thermodynamic solubility (shake-flask; Cremophor ELP; 37 °C, water up to 0.5% w/w): 85.5 ± 3.27 mg/g

O=C(NO)[C@H]1COC(c2c[nH]c3ccc(F)cc23)=N1
thermodynamic solubility (aqueous buffer; pH 7.4): 36.6 µM

CC[C@H](C)[C@H](NC(=O)[C@H](Cc1ccccc1)NC(=O)[C@H](Cc1ccc(O)cc1)NC(=O)[C@@H]1CCCN1C(=O)[C@@H](N)Cc1ccc(O)cc1)C(=O)N1CCC[C@H]1C(=O)N[C@H](CCCCN)C(=O)NCC(=O)N[C@H](CCCCN)C(=O)NCC(=O)N[C@@H](CCC(=O)O)C(=O)N[C@H](C(=O)N[C@@H](CC(N)=O)C(=O)N[C@@H](CC(C)C)[C@@H](O)CC(=O)N[C@H](C(=O)N[C@@H](C)C(=O)N[C@@H](CCC(=O)O)C(=O)N1CCC[C@@H]1C(=O)N[C@@H](CCCCNC(=O)CCC(=O)O[C@H]1CC[C@@]2(C)C(=CC[C@H]3[C@@H]4CC[C@H]([C@H](C)CCCC(C)C)[C@@]4(C)CC[C@@H]32)C1)C(N)=O)C(C)C)C(C)C
thermodynamic solubility (50 mM phosphate buffer; pH 6.5): > 0.713 mg/mL

N[C@H](CNc1nc(-c2ccncc2)nc2sc3c(c12)CCCC3)Cc1ccccc1
thermodynamic solubility (aqueous medium; trihydrochloride salt): 23100 µM

C#C[C@]1(O)CC[C@H]2[C@@H]3CCc4cc(O)ccc4[C@H]3CC[C@@]21C
thermodynamic solubility (shake-flask; Cremophor ELP; 37 °C, water up to 0.5% w/w): 144 ± 14.4 mg/g

CC[C@H](C)C(=O)N1CCC(NC(=O)Nc2ccc(OC(F)(F)F)c(F)c2)CC1
thermodynamic solubility (PEG 300): 13.9 mg/mL

COc1cc(-c2nnc(SCC(N)=O)n2C)cc(OC)c1OC
thermodynamic solubility (aqueous buffer; pH 7.4): > 11100 µM

CCOc1nc2cccc(C(=O)OC(C)OC(=O)OC3CCCCC3)c2n1Cc1ccc(-c2ccccc2-c2nnn[nH]2)cc1 (stereo not shown)
thermodynamic solubility (shake-flask; Cremophor ELP; 37 °C, water up to 0.5% w/w): 15.6 ± 0.54 mg/g

CN1CCN(c2cccc(-c3ccc4ncnc(Nc5ncco5)c4c3)c2)CC1
thermodynamic solubility (0.1 M phosphate buffer; pH 7.4, 25 °C): 520 µM

CC(=O)[C@H]1CC[C@H]2[C@@H]3CCC4=CC(=O)CC[C@]4(C)[C@H]3CC[C@]12C
thermodynamic solubility (shake-flask; Cremophor ELP; 37 °C, water up to 0.5% w/w): 35 ± 1.23 mg/g

CCn1c(SCC(=O)Nc2ccccc2OC)nnc1-c1ccco1
thermodynamic solubility (aqueous buffer; pH 7.4): 43.5 µM

Cn1cc(Nc2ncnc3ccc(-c4cccc(N5CCOCC5)c4)cc23)cn1
thermodynamic solubility (0.1 M phosphate buffer; pH 7.4, 25 °C): 1.5 µM

CC1(CNC(=O)[C@H](CN)NC(=O)c2ccc(-c3ccccc3)cc2)NC(=O)NC1=O (stereo partly shown)
thermodynamic solubility (aqueous buffer; pH 7.4): 6230 µM

Cc1ccc(Nc2ncnc3ccc(-c4cccc(N5CCOCC5)c4)cc23)cc1
thermodynamic solubility (0.1 M phosphate buffer; pH 7.4, 25 °C): 0.9 µM

O=C(Nc1ccc([N+](=O)[O-])cc1Cl)c1cc(Cl)ccc1O
thermodynamic solubility (shake-flask; Cremophor ELP; 37 °C, water up to 0.5% w/w): 47.9 ± 1.24 mg/g

Clc1ccc(Nc2ncnc3ccc(-c4cccc(N5CCOCC5)c4)cc23)cc1Cl
thermodynamic solubility (0.1 M phosphate buffer; pH 7.4, 25 °C): 4 µM

Cc1cc(C)c(S(=O)(=O)NCc2ccccn2)cc1C
thermodynamic solubility (aqueous buffer; pH 7.4): 54.1 µM

CCC(C)n1ncn(-c2ccc(N3CCN(c4ccc(OCC5COC(Cn6cncn6)(c6ccc(Cl)cc6Cl)O5)cc4)CC3)cc2)c1=O (stereo not shown)
thermodynamic solubility (shake-flask; Cremophor ELP; 37 °C, water up to 0.5% w/w): 2.5 ± 0.41 mg/g

C[C@H]1CN(c2cccc(-c3ccc4ncnc(Nc5ncco5)c4c3)c2)CCO1
thermodynamic solubility (0.1 M phosphate buffer; pH 7.4, 25 °C): 6 µM

Repeated from above:
CC[C@H](C)C(=O)N1CCC(NC(=O)Nc2ccc(OC(F)(F)F)c(F)c2)CC1
thermodynamic solubility (PEG 300): 13.9 mg/mL

COc1cc(-c2nnc(SCC(N)=O)n2C)cc(OC)c1OC
thermodynamic solubility (aqueous buffer; pH 7.4): > 11100 µM
